Assay results gathered from unrelated publications.
A part holds a random share of what one study measured. Positions count from the first letter of the parent shown.

Sample 1
Target: Histone acetyltransferase KAT6A, both winged helices, GST fusion (KAT6A, Homo sapiens, UniProt Q92794, residues 1-181)
Method: protein binding microarray
Molecule type: double-stranded DNA, one strand shown
Medium: in vitro
Concentration: not given
Notes: 8-mer, flanks averaged, mean of 2 arrays, mostly near background
Relative to: not given
Reading: higher = stronger binding
Construct (chain): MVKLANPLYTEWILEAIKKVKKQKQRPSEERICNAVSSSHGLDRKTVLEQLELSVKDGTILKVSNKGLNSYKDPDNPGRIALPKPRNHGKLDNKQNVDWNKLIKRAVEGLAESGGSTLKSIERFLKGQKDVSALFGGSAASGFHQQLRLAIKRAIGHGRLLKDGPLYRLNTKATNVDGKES
Strand | E-score
AGCAAGCG | 0.17
GGCGACAC | 0.171
GAGAGGCC | -0.107
GCTTAGCC | 0.168
TCATAGGA | -0.159
AACACAGG | -0.145
TACTAGGA | -0.321
CCCCCCTC | -0.341
CTCCATTC | -0.178
AGTTCACA | -0.0602
CCCGCTCC | 0.237
GCCATGTA | -0.0477
TAGATTAA | -0.0266
AGCGTAAA | 0.128
TGCGGGAA | 0.263
CATCTGAG | -0.0914
CCTCGATA | 0.129
GGAGTTGA | -0.0967
GCTGTACC | 0.0337
CGCTGACC | 0.22
AACAGCGC | 0.308
ACGTTCAC | 0.0587
ACGCTAAT | 0.155

Sample 2
Target: CCNB2, cyclin fold, Cln2 fusion (human)
Method: yeast growth competition, sequencing
Medium: yeast
Notes: weak parent motif
Relative to: not given
Reading: higher = stronger binding
Starting sequence: CDC25A docking peptide (human); PPHRRRLLFACSP; partner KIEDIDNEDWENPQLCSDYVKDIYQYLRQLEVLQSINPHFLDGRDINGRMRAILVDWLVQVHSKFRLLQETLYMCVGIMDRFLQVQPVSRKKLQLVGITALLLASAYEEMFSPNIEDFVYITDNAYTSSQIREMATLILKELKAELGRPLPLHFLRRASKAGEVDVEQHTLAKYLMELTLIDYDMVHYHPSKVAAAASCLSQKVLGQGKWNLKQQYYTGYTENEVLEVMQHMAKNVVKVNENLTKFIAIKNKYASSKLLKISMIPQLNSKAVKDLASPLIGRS
Variant | normalised enrichment score
QPHRRRLLFACSP [P1Q] | 0.51
PPGRRRLLFACSP [H3G] | 0.63
PPHRRRLLFWCSP [A10W] | 0.346
PPHRRRLKFACSP [L8K] | 0.519
PPHRRRLLFACIP [S12I] | 0.74
PPHRKRLLFACSP [R5K] | 0.8
PPHRAAAAFACSP [R5A R6A L7A L8A] | -0.112
PPHRRRLLFRCSP [A10R] | 1.05
PPHRRRLLFACSL [P13L] | 0.456
PPHRRILLFACSP [R6I] | 0.0853
PPHRRRLLKACSP [F9K] | 0.993
PPHRRRMLFACSP [L7M] | 0.536
PPHRRRSLFACSP [L7S] | 0.332
PPTRRRLLFACSP [H3T] | 0.104
PNHRRRLLFACSP [P2N] | 0.57
PPHRRRHLFACSP [L7H] | 0.35
PPHRQRLLFACSP [R5Q] | 0.409

Sample 3
Target: Centromere-binding protein 1, full length, His-tagged (CBF1, Saccharomyces cerevisiae, UniProt P17106, residues 1-351)
UniProt P17106, sequence (whole entry, looked up): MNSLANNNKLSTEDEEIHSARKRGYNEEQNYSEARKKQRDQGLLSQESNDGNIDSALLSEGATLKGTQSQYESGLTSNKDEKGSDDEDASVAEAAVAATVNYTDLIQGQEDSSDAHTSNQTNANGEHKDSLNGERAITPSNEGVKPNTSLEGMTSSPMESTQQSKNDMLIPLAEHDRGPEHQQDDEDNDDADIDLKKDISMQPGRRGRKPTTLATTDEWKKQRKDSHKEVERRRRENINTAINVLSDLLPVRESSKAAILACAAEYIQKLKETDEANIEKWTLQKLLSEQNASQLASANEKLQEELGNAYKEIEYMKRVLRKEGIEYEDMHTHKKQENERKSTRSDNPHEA
Method: competition protein-binding microarray
Molecule type: double-stranded DNA, one strand shown
Medium: in vitro
Concentration: 2 µM
Notes: whole 60-bp probe, lowest competitor level
With: Pho4 competitor, 0.05 µM
Reading: higher = stronger binding
Shared flanks, not repeated: … GTCTTGATTCGCTTGACGCTGCTG
Strand | fluorescence intensity
GATATCGTTCAAATGCTCGTGCTTTAACCTTAATAC | 123 a.u.
ACTAGTAAGGGTAGTGGTGTGACGCTGACCCGATCG | 79.4 a.u.
CTAACGAAGGTTTTTCACGTGGTCTACAAGCCAAGT | 1140 a.u.
AAATTACTAAGTTGTCACATGACTTACCCCGTATGA | 3200 a.u.
AAGACAGATGGCCGACACGCACTTTCACAGTTTCGC | 65.3 a.u.
TTATTCCCCAACAATCACGTTCCTTCTGCCAACATC | 244 a.u.
GCCGCCGCTTCTCCACACGTGCACTCGGGTCTCTCG | 557 a.u.
GTCTTGTCTCATTGTCACATCACTTTCCCCACTTCA | 121 a.u.
CTTTCCCGATCTTGCTAAGTGGGTGTAGCACATTTG | 68.9 a.u.
AAAGCGGTAATTTGTAAGGTGGGTGCAGATATCTAT | 78.1 a.u.
TATGGGCTTATTAAGCTCGTGCTGTAAGATCTTGAA | 116 a.u.
CGGGGTTAAGTTTGATCCGTGGGTGGCTTGCAGCAG | 78.3 a.u.
CTTCTGTAAATTTGGTCAGTGGGTGGACGCGCCCCG | 86.2 a.u.
GCTACCCCGGCCTGCCGTGTGGCTCTCTGTGCGAAG | 52.1 a.u.
GCCCCAAAATACTGTCACAGTAAAGACCATGCTTGT | 67.3 a.u.
CTAACGAAGGTTTTTCACGTGGGTTACAAGCCAAGT | 732 a.u.
CTAACGAAGGTTTGTGTTGTGGGTGACAAGCCAAGT | 80.6 a.u.

Sample 4
Target: RNA binding protein fox-1 homolog 2, RRM domain, GST-SBP tag (RBFOX2, Homo sapiens, UniProt O43251-10, residues 100-194)
Method: RNA Bind-n-Seq
Molecule type: RNA
Medium: in vitro
Concentration: 365 nM
Notes: natural RNA segment, single round, ends assumed
Relative to: no-protein control
Reading: higher = stronger binding
Shared flanks, not repeated: GGGAGUUCUACAGUCCGACGAUC … UGGAAUUCUCGGGUGCCAA
Target sequence (chain): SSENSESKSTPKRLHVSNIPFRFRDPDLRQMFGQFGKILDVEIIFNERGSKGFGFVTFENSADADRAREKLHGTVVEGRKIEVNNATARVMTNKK
Strand | RBNS enrichment (R)
UCUGUCUAUGAAUACCUUUUUGAACAAAGAAAAUUUUAUUGAUUUAAAAAGCUUUUAUAUGAGACAGACAAGUCCCUGAGUUCCAGGCCAGCCUUGGUGGCAAGUCACUA | 0.362
AGACCCAAGCCAAAUAUGGAUUCUAGGCUCUGGAACUGAUUGCUCCCAGGAUCUCCUGCCAGCCCAGCUGGCCUGGCCCCCAGCUUCACCUCUGGGACCCCAGCUGCUCU | 0.231
UUCCUCCUUUGCUUUCACUUCUUAAGUAUAUGUGUUCUGAAGUUGAGAUGGGAGAGAUUUGAAUAUAGAAUUUUUAUUCUCAAACUGUUUAGUCAUCUAAGGCUUCAUUG | 0.562
CACUUUCCCUUAGCCCCUCUGCUGGGUAGAGAGGCACUUUCAGGGACUUCCCUCCAGCUGCCUCUUCAUCUGGGAAUGAGCUAAGCAAGGCUGAGCCUCCUCCUGUUGCU | 0.271
UUAGAUCCUGAAAAUGAAAGUGAAGAAGAAUGAGACAGCAAAGCAAGCCGGUCAAACUAUAUAAACUCUGGCUCACCUUGCCCAGUGGUGAGGGCUGCCUCUGUGCCAGG | 1
UUAUAGAAAACUUUAGACCUGUGACAUUUUUUUGUUUUAAAUUACAAAAGAGGUUGGUAUGAUAAAGUGAUGGCUUUUUUCUUAUAUAAAUAGAAUGCAAAUCAAAGAUA | 0.955
AACUCUUCAAAAAUGGUCACAGAAUGCCUUUUAAAAUACUGUAUAUAGUCUUCACUGCUUCACCUUGUUAAGUCAGAUAUUUAUGAUAAUGAAGUACGGAACUGGGAACU | 0.777
GCCAUAUGUAGCACAGCAAUAUUCCAGAUGCUGGUGGGUAUUGCUGCUGCCCUAGAGCAAUGGCUUAAUCUUCACACAUGUGUGGUGUGGCACCAGGCACUUGACCUUGG | 0.77
AGCAGCUGCUGGUGGCUUGGGACAUCAGUGGGGCCAAGGGUUCUCUGUCCCUGGUUCAACUGUGAUUUGGCUUUCCCGUGUCUUUCCUGGUGAUGCCUUGUUUGGGGUUC | 0.306
AUGCUGUUACAUCCAGAAUAUUCAUUAGGCUGCCCCACAGCUCUUCUGUAUAUAUAGAGACCACAGAGUUAGGAUUUUUUUUAAUGAGAAAAAUACUGUAUUUAAAAUGU | 0.304
UAGCUGCUGCUAAAACAAUGCUAGCCUAAAGAUACAGGAGUCUCUGACAAAAUGACUUUCAUGUUAAGGGGAAAUGCUGUUUAUCUACUCAGACAUGCAUCUGUGAUGUU | 0.332
UUUCAAGGGUAUCUGUUCUGAUACUGAAGGGAGAGUAUGCAUCUAAAAACAGCACUGUUCCCCAAGGGGGUGUUCUGGGCUUCUCUCUCUUCUCACUUUACCUGUUUUUA | 0.443

Sample 5
Target: Sal-like protein 4, full length isoform B (SALL4, Homo sapiens, UniProt Q9UJQ4-2, residues 1-616)
Method: universal PBM
Molecule type: double-stranded DNA, one strand shown
Medium: in vitro
Concentration: not given
Notes: 8-mer, flanks averaged, mean of replicates
Reading: higher = stronger binding
Strand | E-score
TCTAGAGA | -0.0145
ACTGACAA | -0.00821
GGCCATTA | -0.0203
CACAGAAG | -0.0953
CAAGGATG | 0.0314
CAGCAGGA | -0.105
CCTTGTCA | 0.171
CGAATGGC | -0.15
TCAATCGA | 0.0302
CGCCGTTA | -0.0504
CGAGCGCC | -0.427
GGATCCGA | -0.15
AGAACTAG | -0.0352
AGATTCCT | -0.028
CAAAACTC | 0.0896
ATATCCCA | 0.234
AGTGGCGA | -0.0765
TATAAAGA | 0.278
AGAGCTAC | -0.0227
TAGGGTAA | 0.115
CTGAGGAC | -0.0711
GATAGTCA | 0.0785
AAAGCCGG | -0.128
CAGGCCCG | -0.317
CGATGCAA | -0.123

Repeated from above (sample 5):
Strand | E-score
CACAGAAG | -0.0953
CAAGGATG | 0.0314
CAGCAGGA | -0.105
CCTTGTCA | 0.171
CGAATGGC | -0.15
TCAATCGA | 0.0302
CGCCGTTA | -0.0504
CGAGCGCC | -0.427
GGATCCGA | -0.15
AGAACTAG | -0.0352
AGATTCCT | -0.028
